Experimental data from different studies.
Parts stem from different laboratories: compare values within a part only. Substitutions count along the parent as printed.

Block 1
Target: Ras GTPase-activating protein-binding protein 1, full length (G3BP1, Homo sapiens, UniProt Q13283)
UniProt Q13283, sequence (whole entry, looked up): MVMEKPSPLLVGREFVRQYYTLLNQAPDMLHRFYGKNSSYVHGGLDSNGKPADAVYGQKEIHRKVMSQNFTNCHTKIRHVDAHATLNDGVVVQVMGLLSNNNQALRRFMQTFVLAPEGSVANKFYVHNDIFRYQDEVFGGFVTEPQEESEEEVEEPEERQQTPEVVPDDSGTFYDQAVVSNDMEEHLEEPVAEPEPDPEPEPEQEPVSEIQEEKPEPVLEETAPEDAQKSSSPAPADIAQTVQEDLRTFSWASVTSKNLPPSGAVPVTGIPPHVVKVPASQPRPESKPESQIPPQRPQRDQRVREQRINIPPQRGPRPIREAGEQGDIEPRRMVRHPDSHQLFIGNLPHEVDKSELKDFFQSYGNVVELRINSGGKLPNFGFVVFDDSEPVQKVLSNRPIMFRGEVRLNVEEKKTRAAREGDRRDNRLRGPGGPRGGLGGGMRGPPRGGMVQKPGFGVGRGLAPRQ
Technique: RNA Bind-n-Seq
Form: RNA
Medium: in vitro
Tested at: 200 nM
Notes: whole 134-nt RNA, ends assumed
Together with: 150 mM KCl
Reference: input library
Direction: higher = stronger binding
Sequence	log2 enrichment
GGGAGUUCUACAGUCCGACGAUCUGGGAGGUGGAUUUUGUUUAUUUUUUUAGCUCAUUUCCAGGGGUGGGAAUUUUUUUUUAAUAUGUGUCAUGAAUAAAAUUGUUUUUGAAAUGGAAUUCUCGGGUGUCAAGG	0.0885
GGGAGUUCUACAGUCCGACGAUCAGUCCUGUGCUACACAUCGUAUGUACCGAAUCGGGAAAAAAAGGGUGGGUUUUUGGGAAAGUAUUAUGUUACGCCGUUCGGAUCUGCACUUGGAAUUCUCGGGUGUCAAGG	-0.243
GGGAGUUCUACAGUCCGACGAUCUUUCUCCAUUGCAGGAAGUUGGCAGUAUCAUCGGAAAGGUAAGACAAUUUCACUUCAACUUCAAUUACCAUUUAGUAAUUCUGGAUUGAAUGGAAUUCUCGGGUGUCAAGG	-1.22
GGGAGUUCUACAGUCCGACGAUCCCUGUGCUACACAUCGUAUGUACCGAAUCGGGUUUUUUGGGUUUUUUGGGUUUUUUGGGGAAAGUAUUAUGUUACGCCGUUCGGAUCUGCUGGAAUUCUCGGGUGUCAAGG	-0.772
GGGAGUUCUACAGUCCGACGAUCCAUCAAAAUAGCUACAAACCAUACUAAAUUAUUCCAUUUGCAACUUAUCCCCAACAGGUAUGUUCUAAAAAUAGUUUUUUUUUGUCAUUUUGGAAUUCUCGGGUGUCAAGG	-0.603
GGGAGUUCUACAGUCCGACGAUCGCAGGAAGUAAAAACAAAUGGAAAUGCUUCGGAUAGUGGCAGGGGUGGGGGUUGCUAAGGAAAGAGUGGGAUGGGAGUGGGUAAAGAGUUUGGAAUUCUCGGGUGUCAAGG	0.838
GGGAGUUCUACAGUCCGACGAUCGUCCUGUGCUACACAUCGUAUGUACCGAAUCAAAUUUUUUUAAACCCAAAUUUUUAAAAAAGUAUUAUGUUACGCCGUUCGGAUCUGCACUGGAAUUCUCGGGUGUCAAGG	-0.832
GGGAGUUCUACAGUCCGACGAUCGUCCUGUGCUACACAUCGUAUGUACCGAAUCGGGGAAAAAGGGGUUUUUGGGGUGGGGAAAGUAUUAUGUUACGCCGUUCGGAUCUGCACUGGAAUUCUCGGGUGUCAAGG	0.349
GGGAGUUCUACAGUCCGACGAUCGCAGGAAGUAAAAACAAAUGGAAAUGCUUCGGAUAGUGGCAGGGGUGGGGGCUGCUAAGGAAAGGGUGGGAUGGGAGUGGGUAAAGAGUUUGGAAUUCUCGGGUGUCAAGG	1.18
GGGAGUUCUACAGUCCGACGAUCACCAUGCAGGUGGGCAUCUUUGGGAAGUGGGGCAAGGGGGGGAUAGGCAGGGGGGUAACACUUUGGGAACAGGUGGUCCCAGGUCGUUUCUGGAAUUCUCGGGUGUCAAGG	0.873

Block 2
Target: CEP164, C-terminal peptide (human)
Technique: DHFR complementation, deep sequencing
Medium: yeast
Notes: single substitutions, model-inferred values
Reference: wild type
Direction: higher = weaker binding
Parent: PDZK1, PDZ domain 2 (human); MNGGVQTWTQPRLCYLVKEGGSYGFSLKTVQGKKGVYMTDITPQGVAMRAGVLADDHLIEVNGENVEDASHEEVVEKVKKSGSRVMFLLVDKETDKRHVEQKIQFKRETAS; partner HNRVKVYRF
Change	binding free energy change [kcal/mol]
G63L	0.707
G4M	0.0482
S81R	0.749
D91C	0.0717
C14F	0.69
R49A	0.241
Y23C	1.49
S81H	0.658
H98A	-0.096
V78H	1.79
V78W	2.22
G35A	0.202

Block 3
Target: ABI1, truncated, D143A, DHFR fusion (Arabidopsis thaliana)
Technique: DHFR PCA, deep sequencing
Medium: yeast
Notes: methotrexate growth selection, single substitutions
Together with: (+)-ABA 4.8 µM
Reference: wild-type fitted maximum
Direction: higher = stronger binding
Parent: PYL1, truncated, DHFR fusion (Arabidopsis thaliana); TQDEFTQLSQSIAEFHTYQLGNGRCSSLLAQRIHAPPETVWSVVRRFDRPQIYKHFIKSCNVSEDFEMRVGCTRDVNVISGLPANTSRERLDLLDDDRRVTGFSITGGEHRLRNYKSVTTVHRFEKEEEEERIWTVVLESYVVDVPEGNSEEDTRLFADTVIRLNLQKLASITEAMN
Change	relative binding score
P37M	23.7%
T173A	76.8%
D95S	15%
F5Q	64.6%
R111N	8.88%
E174H	22.5%
G23Q	50.1%
H122I	0.585%
T120N	7.19%
T160I	17.2%
E152W	49.8%
Q167C	59.2%
I33C	39.3%
N149A	30.6%
T6Y	57.8%
E127R	75.7%
L164M	80.1%
G81H	-10.3%

Block 4
Target: CCNA2, cyclin fold, Cln2 fusion (human)
Technique: yeast growth competition, sequencing
Medium: yeast
Notes: strong parent motif
Reference: not given
Direction: higher = stronger binding
Parent: REV3L docking peptide (human); PPVIIKYIIINRF
Change	normalised enrichment score
K6A	-0.0249
F13A	0.712
V3A	1.56
I4A	0.937
R12A	1.04
P2A	1.6
I5A	0.57

Block 5
Target: Histone acetyltransferase KAT6A, winged helix 1, GST fusion (KAT6A, Homo sapiens, UniProt Q92794, residues 1-85)
Technique: protein binding microarray
Form: double-stranded DNA, one strand shown
Medium: in vitro
Tested at: not given
Notes: 8-mer, flanks averaged, mean of 2 arrays, mostly near background
Reference: not given
Direction: higher = stronger binding
Target sequence (chain): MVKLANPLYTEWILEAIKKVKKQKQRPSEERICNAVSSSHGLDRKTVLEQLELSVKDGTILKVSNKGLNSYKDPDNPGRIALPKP
Sequence	E-score
AGGTAGTA	0.0364
CGGAGAGC	0.211
AGTCCAGC	-0.146
GACTAAGA	-0.0277
AGCGTAGA	0.159
CACCGACC	0.181
GTATGTCA	-0.12
ACCTTTGG	-0.0891
TGCTAACA	-0.0555
AATTTCCA	-0.175
TCTATTAA	-0.0465
GGCTAGAA	-0.000955
CTGACCGA	0.0568
AAAACGAG	-0.113
ACGCATAG	0.195
ACGAGCTA	-0.0825
CGGACCTC	0.166
AGAGGCCC	-0.0658
ATGACGTA	-0.202
AACGCTGA	0.169
ACAATGTA	-0.151
GACGGCGA	0.355
CGGCCCCG	0.412
AATCAGCT	-0.227
CTCCGGAA	0.0319
